Measured values pooled from the literature.
Numbers after ± are the reported error.
Organism: Influenza A virus

For O=C(Nc1ccccc1SSc1ccccc1NC(=O)c1ccccc1)c1ccccc1, “neutralizing antibody titre” read 1.7 fold (A/NWS/33 (H1N1), mouse, serum; oral, 1 mg/mouse/day, day 14; relative to: untreated infected control).
The EC50 of CC(=O)N[C@H]1[C@H]([C@H](O)[C@H](O)CO)OC(C(=O)O)=C(C/C=C/c2ccc(C)cc2)[C@@H]1O is reported as > 1000 µM (viral replication; A/Paris/908/97 (H3N2); 72 h).
The inhibition of C=C(C)[C@H](O)COc1ccc(CCO)cc1 is reported as 10% (viral replication, inhibitor; H1N1 WSN; 10 µM).
For CC1(C)CCC2(C(=O)NCc3ccccc3)CCC3(C)C(=CCC4C5(C)CCC(OC(=O)C6CC(OC(=O)c7ccccc7)CN6C(=O)c6ccccc6)C(C)(C)C5CCC43C)C2C1 (stereo not drawn), the EC50 was > 20 µM (viral replication; MDCK, A/WSN/1933 (H1N1); 48 h).
With CC(CO)C(=O)OCC(C)C(=O)OCCc1ccc(O)cc1 (stereo not drawn) the inhibition was 0% (viral replication, inhibitor; H1N1 WSN; 10 µM).
With CC1(C)CCC2(C(=O)NCc3ccccc3)CCC3(C)C(=CCC4C5(C)CCC(OC(=O)C6CC(OC(=O)C7CC(O)C(O)C(O)C7)CN6C(=O)c6ccc(O)c(O)c6)C(C)(C)C5CCC43C)C2C1 (stereo not drawn) the selectivity index was 42.3 (MDCK, A/WSN/1933 (H1N1); relative to: CC50 over EC50).
C=CCC1=C(C(=O)O)O[C@@H]([C@H](O)[C@H](O)CO)[C@H](NC(C)=O)[C@H]1O gave an EC50 of 1800 µM (viral replication; A/Paris/0497/2007 (H1N1); 72 h).
The inhibition of COc1cc(CCO)ccc1O is reported as 0% (viral replication, inhibitor; H1N1 WSN; 10 µM).
For COc1ccc(C(=O)OC2CC(C(=O)OC3CCC4(C)C(CCC5(C)C4CC=C4C6CC(C)(C)CCC6(C(=O)NCc6ccccc6)CCC45C)C3(C)C)N(C(=O)c3ccc(OC)c(OC)c3)C2)cc1OC (stereo not drawn), the EC50 was 4.02 ± 1.42 µM (viral replication; MDCK, A/WSN/1933 (H1N1); 48 h).
O=C(c1ccc(Cl)cc1Cl)N1CCO[C@@H](c2ccccc2)C1 has an EC50 of 100 µM (viral replication; 72 h).
OCCc1ccc(O)cc1 has an inhibition of 0% (viral replication, inhibitor; H1N1 WSN; 10 µM).
COc1ccc(C(=O)OC2CC(C(=O)OC3CCC4(C)C(CCC5(C)C4CC=C4C6CC(C)(C)CCC6(C(=O)NCc6ccccc6)CCC45C)C3(C)C)N(C(=O)c3ccc(F)c(F)c3)C2)cc1OC (stereo not drawn) gave an EC50 of 5.17 ± 1.76 µM (viral replication; MDCK, A/WSN/1933 (H1N1); 48 h).

A few entries again:
The EC50 of CC(=O)N[C@H]1[C@H]([C@H](O)[C@H](O)CO)OC(C(=O)O)=C(C/C=C/c2ccc(C)cc2)[C@@H]1O is reported as > 1000 µM (viral replication; A/Paris/908/97 (H3N2); 72 h).
For CC1(C)CCC2(C(=O)NCc3ccccc3)CCC3(C)C(=CCC4C5(C)CCC(OC(=O)C6CC(OC(=O)c7ccccc7)CN6C(=O)c6ccccc6)C(C)(C)C5CCC43C)C2C1 (stereo not drawn), the EC50 was > 20 µM (viral replication; MDCK, A/WSN/1933 (H1N1); 48 h).
